Assay results from different studies.
Numbered parts are unrelated; each lists some results of a single study. Substitutions count along the parent as printed.

Series 1
Target: CCNA2, cyclin fold, Cln2 fusion (human)
Technique: yeast growth competition, sequencing
Sample: yeast
Setting: strong parent motif
Reference: not given
Direction: higher = stronger binding
Parent: ORC1 docking peptide (human); PRARKRLELGNLG
Under “normalised enrichment score”, `P1W` is recorded as 3.21.
For `K5Y`, “normalised enrichment score” read 1.06.
For `L7H`, “normalised enrichment score” read 0.978.
Under “normalised enrichment score”, `R2V` is recorded as 4.07.
For `L7P`, “normalised enrichment score” read -1.15.
For `E8I`, “normalised enrichment score” read 3.97.
Under “normalised enrichment score”, `G10M` is recorded as 4.01.
Under “normalised enrichment score”, `G10E` is recorded as 5.51.
`R4F`: “normalised enrichment score” 1.08.
`N11S`: “normalised enrichment score” 4.66.
`K5T`: “normalised enrichment score” 1.67.
`L12D` — result for “normalised enrichment score”: 4.9.
Under “normalised enrichment score”, `L7D` is recorded as 0.495.
Under “normalised enrichment score”, `L7K` is recorded as 2.15.
`L7V` — result for “normalised enrichment score”: 0.181.
`R2A` — result for “normalised enrichment score”: 4.44.
`A3P` — result for “normalised enrichment score”: 1.88.
For `L12C`, “normalised enrichment score” read 5.51.
For `L9R`, “normalised enrichment score” read 1.33.
`K5H` — result for “normalised enrichment score”: 1.81.
For `G10W`, “normalised enrichment score” read 5.6.
Under “normalised enrichment score”, `N11K` is recorded as 4.56.
For `P1Q`, “normalised enrichment score” read 4.42.

Series 2
Target: ABI1, truncated, D143A, DHFR fusion (Arabidopsis thaliana)
Technique: DHFR PCA, deep sequencing
Sample: yeast
Setting: methotrexate growth selection, single substitutions
With: (+)-ABA 0.0091 µM
Reference: wild-type fitted maximum
Direction: higher = stronger binding
Parent: PYL1, truncated, DHFR fusion (Arabidopsis thaliana); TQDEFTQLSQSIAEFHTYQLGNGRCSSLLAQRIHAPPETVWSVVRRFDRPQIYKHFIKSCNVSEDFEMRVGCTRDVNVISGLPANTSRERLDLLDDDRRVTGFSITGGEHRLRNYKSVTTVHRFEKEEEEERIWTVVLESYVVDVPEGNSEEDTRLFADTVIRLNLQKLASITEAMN
For `K54F`, “relative binding score” read 3.66%.
`S27D` — result for “relative binding score”: -0.51%.
`K126V` — result for “relative binding score”: 45.7%.
`I105P`: “relative binding score” -0.553%.
For `W134V`, “relative binding score” read 18.6%.
`R132N` — result for “relative binding score”: 34.7%.
For `R88E`, “relative binding score” read 1.48%.
For `R49G`, “relative binding score” read -0.203%.
`G81V`: “relative binding score” 6.73%.
`D92T`: “relative binding score” 1.47%.
Under “relative binding score”, `S104A` is recorded as -1.52%.

Series 3
Target: RNA binding protein fox-1 homolog 2, RRM domain, GST-SBP tag (RBFOX2, Homo sapiens, UniProt O43251-10, residues 100-194)
Technique: RNA Bind-n-Seq
Form: RNA
Sample: in vitro
Tested at: 365 nM
Setting: natural RNA segment, single round, ends assumed
Reference: no-protein control
Direction: higher = stronger binding
Shared flanks, not repeated: GGGAGUUCUACAGUCCGACGAUC … UGGAAUUCUCGGGUGCCAA
Residues (chain): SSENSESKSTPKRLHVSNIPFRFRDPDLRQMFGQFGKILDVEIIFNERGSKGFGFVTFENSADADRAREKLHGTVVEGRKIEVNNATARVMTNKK
`GGCCUUGGGCAAGUCACUCCCCCUCUCUGAGCUUCAGUAUCCUCCUGUCACAGGAGGGAGUUGGGCUAGAUCAUCUUUAAGGUAGGUUCUAGCUUUGACAUCAUCUUGGG`: “RBNS enrichment (R)” 0.327.
For `UCGGUCCCUGCCUUGUCUGUCUAGGCCCAUUUGGGGCUCCCUGUGAGUGAUUCCCCUCUCUCUGCUAUGCUGGAGACGGUUCCAGCCUGGAAAGCGGCCAAGUUCAUCUU`, “RBNS enrichment (R)” read 0.305.
`CCUUUUCCCACAGGGAAAGAAAAGUUGGAUCACUAGUGGCCAGCAUCCCCAGAGUUCCGUUAGUAAACUUACUUCAUAUGUCCCCUGUCUUCCUCCAUCUGAGAAGUGGC`: “RBNS enrichment (R)” 0.78.
Under “RBNS enrichment (R)”, `AUCCUUUUGUGUUCCAGCCUAGGCUAAGUGUUUGUGAAAGCCAUUUGUGAGUGCUUGGAGUGUUCUUCCUAAUAAACACACUUCAUGUCUUGUGUUGUCUUUUUCACUCA` is recorded as 0.427.
`CUAUUUUUACAUACCCAAUUCCAGUAACUCUCAAAUCCAGUAUUUUACUCAAACUCUGUUGGGGCAUUUUACUAACCUUGUUCCCUUUUUGGCCUGUAAGACACUUUAGA`: “RBNS enrichment (R)” 0.682.
`CUGUUUGCUAAACCACAACUCUUUUUGGCUACUUGGGUCAUAGAGACAGCAGAGUUGCUCCAAGUAUAAAUGUGACUUAGGCUCCCUCCAGCACACAGUGUGUAUGUUGG`: “RBNS enrichment (R)” 0.609.
`UCUAAAUGUUCCCUCUGUUCAGCUUAGCAACCCUCCCCCCUUUGCUAUGUAACGCGAUCCCAUUUGCCUCUUGCUCCAUUGUGUGAUAAGCUAUGGGCUUGAAGAUGUUC`: “RBNS enrichment (R)” 0.47.
`AGCACUUAUCCCCCACGCCCGCAGCCACGCCCGUGAAAAGCCCUUCAAGUGCCCAGAGUGCGGCAAGCGCUUCGGCCAGAGCUCAGUUCUGGCCAUCCAUGCCCGCACCC`: “RBNS enrichment (R)” 0.389.
`UUUGGAGACAGAAACAGGAGUUUCUCCAAAUCCAAUGAAAACAUGGAAAAUUCAAGGAUUGUUUAAAGGUCUGUGAUCAUCACAUACAAGAUGUAACUCUGGUUAUUUCA` — result for “RBNS enrichment (R)”: 0.471.
For `CAGUUAGGGGAGGCCCUACUGCCUUCUCAAAGCAGAGAGGCAGCUUAUCAAACUCAGCCCAAAACUCUGUUUACAUGGGUGGGGAGAUGGAGCAGGGAAGUACAGAGUGG`, “RBNS enrichment (R)” read 0.392.
For `CCAUACGAGGAGCCCACCGUCCCUGUCCCUCGAGGUCACGUCCCACCGCUGCACUAAGGACUCACGGCCCAGCGUCCACAAGACUGAGGCCCUGUCCCUGCUCAGAGAAC`, “RBNS enrichment (R)” read 0.402.
`ACCACUUCAUUAGAGCACUUGCUGCAGAGGCAGAGAGCAGAGCCGCCAGGAUAAAUUCUGCUUCCACCCCACAAAGGCAGUCACAGGAGAGAGUGGAGAGAGCAGUAAGG`: “RBNS enrichment (R)” 0.196.

Mixed results
For `PhoQ, residues 284 288 289 292 302 303 ALASRC`, the fold induction was 0.823 (PhoP, residues 12 14 15 18 19 TPLRH (Escherichia coli, UniProt P23836); Sort-seq, refers to: YFP reporter; E. coli; PhoQ-PhoP variant library, with: 10 µM Mg2+; reference: high Mg2+ state, higher = stronger signaling).

Some of these lines once more (series 2):
`K126V` — result for “relative binding score”: 45.7%.
`I105P`: “relative binding score” -0.553%.
For `W134V`, “relative binding score” read 18.6%.
`R132N` — result for “relative binding score”: 34.7%.
For `R88E`, “relative binding score” read 1.48%.
